Assay results gathered from unrelated publications.
A part holds a random share of what one study measured. Substitutions count along the parent as printed.

Series 1 — technique: RNA Bind-n-Seq; molecule type: RNA; medium: in vitro; concentration: not given; relative to: input RNA pool; direction: higher = stronger binding
Target: RING finger protein unkempt homolog, zinc fingers 1-6, GST-SBP tag (UNK, Homo sapiens, UniProt Q9C0B0, residues 30-357)
Setting: RNA with constant flanks, human and mouse sites, ends assumed
All sequences stand within: GGGAGUUCUACAGUCCGACGAUC … CAACAGAGGAUUGAGCAUCA
Residues (chain): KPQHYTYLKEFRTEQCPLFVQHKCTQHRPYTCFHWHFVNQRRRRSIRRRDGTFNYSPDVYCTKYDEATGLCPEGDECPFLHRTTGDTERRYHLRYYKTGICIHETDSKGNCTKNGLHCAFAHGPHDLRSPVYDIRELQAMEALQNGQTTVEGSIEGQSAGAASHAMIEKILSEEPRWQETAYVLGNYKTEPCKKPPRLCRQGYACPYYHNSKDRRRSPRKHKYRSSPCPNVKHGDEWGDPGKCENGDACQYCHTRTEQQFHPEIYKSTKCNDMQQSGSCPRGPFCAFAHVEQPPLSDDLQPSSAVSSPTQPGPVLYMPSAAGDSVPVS
| Oligonucleotide | bound/input enrichment [ratio] |
| --- | --- |
| AUUCCACUUCAGACACCCCAUAAACUUGUAGAUACUGGCAGGGCUGCUAAAUUAAUACAGAGAGCUGAGGAAAUGAAGAGCGGCCUGAAAGAUUUCAAAACCUUUUUGACAAAUGAUCAA | 0.323 |
| UAAACUGGUGCUUUAUGUACAUGAGAUGUACUAAAAUAAGUAAUAUAGAAUUUUUCUUGCUAGGUAAAUCCAGUAAGCCAAUAAUUUUAAAGAUUCUUUAUCUGCAUCAUUGCUGUUUGU | 0.297 |
| ACCCCAAAAACCUUAAUUUUCUUUCUUGUUCGGUACCUACAUUGGAACCAUCAAAAACAAUUAUUUCAGUAAACCGUAGCCAUGAGGGAAAUCGUGCACAUCCAGGCCGGACAGUGUGGC | 0.261 |
| GCGGGCGCAGUGUUAUCCACACAGUGAAAUAAGACUGUCAGAAAAUUUCAGCCUCGUGGAUAGUAAUUUUAAUGCCUGUACCACCUGUUUCUGGACAGUUCUCUUGGAGGAGCGAAGAAU | 0.507 |
| GCUGCUGAUUGUGUUCUAGGGGACGGAGUAGGGGAAGACGUUUGCUCUCCCGGAACAGCCUAUCUCAUUCCUUUCUUUCGAUUACCCGUGGCGCGGAGAGUCAGGGCGGCGGCUGCGGCA | 0.326 |
| UACUGCUGGUCCUGUACCAGAAACAUUUUCUUUUAUUGUUACUUGCUUUUUAAACUUUGUUUAGCCACUUAAAAUCUGCUUAUGGCACAAUUUGCCUCAAAAUCCAUUCCAAGUUGUAUA | 3 |
| CUCUUCAAGAGCAUCUGGAACAACAGAUGGCUGCGCACCAUCUCUGUGAUCCUGUUCCUCAACAAGCAAGAUCUGCUCGCUGAGAAAGUCCUUGCUGGGAAAUCGAAGAUUGAGGACUAC | 0.0608 |

Series 2 — technique: protein-binding microarray; molecule type: double-stranded DNA, one strand shown; medium: in vitro; concentration: 940 nM top; setting: 60-bp whole probe; together with: salmon DNA 0.4 mg/ml; relative to: random background probes; direction: higher = stronger binding; all sequences stand within: GCCTAGCAC … GTCTTGATTCGCTTGACGCTGCTG
Target: Interferon regulatory factor 5, full length, phosphomimetic (IRF5, Homo sapiens, UniProt Q13568-2, residues 1-514, S451D/S453D/S456D/S462D)
| Oligonucleotide | fitted relative affinity [z-score] |
| --- | --- |
| CTAGAGATTTTTCTCAACCGGTGCTAG | -0.43 |
| TGAGATTTCCATTATTGCTTGTGCTAG | 0.353 |
| TTAGGACTGGACTAGCGGTTAGTGCTA | -0.747 |
| TTAGGTCTCGGTTTCGGTTTGTGCTAG | 9.45 |
| TAAGGTTTCGGTATCGGTTAGTGCTAG | 12.9 |

Series 3 — target: CCND2, cyclin fold, Cln2 fusion (human); technique: yeast growth competition, sequencing; medium: yeast; setting: weak parent motif; relative to: not given; direction: higher = stronger binding
Parent: BRCA2 docking peptide (human); PSIKRNLLNEFDR
| Change | normalised enrichment score |
| --- | --- |
| E10M | -0.179 |
| F11H | 0.0664 |
| R13D | 0.418 |
| F11A | 0.637 |
| L7D | -0.0668 |

Other studies, line by line
| Substance | target | test | system | conditions | how to read | measurement | result |
| --- | --- | --- | --- | --- | --- | --- | --- |
| PhoQ, residues 284 288 289 292 302 303 SSLVEF | PhoP, residues 12 14 15 18 19 LWHCS (Escherichia coli, UniProt P23836) | Sort-seq, item: YFP reporter | E. coli | PhoQ-PhoP variant library, together with: 10 µM Mg2+ | relative to: high Mg2+ state, higher = stronger signaling | fold induction | 3.79 |

For quick reference, copied from above (series 3):
| Change | normalised enrichment score |
| --- | --- |
| R13D | 0.418 |
| L7D | -0.0668 |
